# Results collected from several papers.
# Protocols differ between the studies behind these lines. ± gives the spread as reported.
# Genome polyprotein NS2B-NS3 protease: Genome polyprotein, NS2B-NS3 protease (dengue virus type 2, UniProt P29990)
Compound,tested on,assay,system,setting,how to read,endpoint,result
CC(C)c1ccc(N(C)c2ccc3c(c2)OCC[C@H]3CNc2cnccc2C(=O)O)cc1,RT112/84,"cell growth or viability, ATP luminescence",,7 days,,IC50,0.00443 µM
O=C1/C(=N\c2ccc(Cl)cc2Br)c2ccccc2N1Cc1ccccc1 (mixture of isomers),B16,"cell growth or viability, MTT",,48 h,,IC50,9.83 µM
Cc1nc(N(C)c2ccc3c(c2)/C(=C/c2ccccc2C)C(=O)N3C)c2ccccc2n1,B16,"cell growth or viability, MTT",,,,IC50,1.54 µM
C=CCOCO[C@H](C(=O)NC[C@@H]1C[C@@H](OC)C(C)(C)[C@@H](C[C@@H](COC)OC)O1)[C@@]1(OC)CC(=C)[C@@H](C)[C@@H](C)O1,B16,"cell viability, sulforhodamine B",,"72 h, 37 °C, added: 100 µM H2O2",,IC50,3.14 ± 0.11 µM
Cc1ncsc1-c1ccc(C(C)NC(=O)C2CC(O)CN2C(=O)C(NC(=O)CCCCCCCCCCN2CCCC(Nc3ncc(Cl)c(Nc4ccccc4S(=O)(=O)C(C)C)n3)C2)C(C)(C)C)cc1 (centres unmarked),22Rv1,"RNA-seq, refers to: N6AMT1",,concentration not given,relative to: DMSO,log2 fold change,-1.27
NC(=O)c1nnn(Cc2cc(Cl)c(C(=O)c3ccc(Cl)cc3)c(Cl)c2)c1N,human iPSC-derived cardiomyocytes,"beat rate, calcium transient",,15 min,,IC50,1.67 µM
C=CC(=O)N1C[C@H](C)N(c2nc(OC[C@@]34CCCN3C[C@H](F)C4)nc3c(F)c(-c4ccc(F)c5sc(N)c(C#N)c45)c(C(F)(F)F)cc23)C[C@H]1C,Ba/F3 expressing KRAS G12C/R68S,"cell viability, CellTiter-Glo",,3 days,,IC50,0.0056 µM
CC(=O)[O][Pd][c]1ccccc1N1N=C(C)C(C)(C)C1=O.CC(=O)[O][Pd][c]1ccccc1N1N=C(C)C(C)(C)C1=O,BEAS-2B,"cell growth or viability, MTT",,24 h,,IC50,> 100 µM
COC1CN([C@H]2CC[C@H]([C@@]3(C)Oc4c(Cl)cc(C(=O)NCc5c(SC)cc(C)[nH]c5=O)c(C)c4O3)CC2)C1,,"RNA-seq, refers to: NRTN","human, whole blood","dose not given, 24 h",relative to: pretreatment baseline,log2 fold change,3.53
Cc1nc(Nc2ccc3c(c2)/C(=C/c2ccccc2)C(=O)N3)c2ccccc2n1,BEAS-2B,"cell growth or viability, MTT",,,,IC50,7.01 µM
Cc1cccc(N2CCC(C(=O)Nc3cccc(C(N)=O)c3)C2=O)c1 (centres unmarked),Genome polyprotein NS2B-NS3 protease,reporter gene,HeLa,,,EC50,39 µM
Cc1cc(C)cc(NC(=O)N(Cc2ccc(C(=O)NO)cc2)OCc2ccccc2)c1,HAL-01 B-ALL,"cell viability, CellTiter-Glo",,72 h,,IC50,2.82 ± 0.094 µM
Cc1cc(C)[nH]n1,BEAS-2B,"cell growth or viability, MTT",,24 h,,IC50,> 800 µM
Cn1ncc(-c2ccc3c(=O)[nH]nc(CN)c3c2)c1-c1c(F)c(Cl)cc(OC2CC2)c1C#N,RT-4,"cell viability, inhibitor, CellTiter-Glo",,"120 h, baseline-subtracted",,IC50,3.18 µM
CN1CCC(N[C@@H]2CCc3[nH]c4c(C(N)=O)ccc(-c5ccccc5Cl)c4c3C2)CC1,MX1,cell growth or viability,,,,IC50,0.0129 µM
CSCC[C@H](NC(=O)[C@H](CCCCN)NC(=O)[C@H](CCCNC(=N)N)NC(=O)[C@H](CO)NC(=O)[C@H](Cc1c[nH]c2ccccc12)NC(=O)[C@H](CCCNC(=N)N)NC(=O)[C@H](CC(C)C)NC(=O)CN)C(=O)N1CCC[C@H]1C(=O)N[C@@H](CS)C(=O)N[C@H](C(=O)N[C@@H](CO)C(=O)O)C(C)C,SUP-T1,"Erk phosphorylation, inhibitor, phospho flow cytometry",,added: CXCL12 100 ng/mL,,IC50,> 100 µM
Cc1nc(Nc2ccc3c(c2)/C(=C/c2ccccc2Cl)C(=O)N3C)c2ccccc2n1,BEAS-2B,"cell growth or viability, MTT",,,,IC50,12.8 µM
COc1ccc(CN2C3(NC(c4ccc(OC)cc4)C24C(=O)Nc2ccccc24)C(=O)Nc2ccccc23)cc1 (centres unmarked),B16,"cell growth or viability, MTT",,48 h,,IC50,53.9 µM
Cc1ccc(-n2cc(CSc3nc4ccccc4n3Cc3cn(-c4ccc(C)cc4)nn3)nn2)cc1,Caco-2,"cell growth or viability, MTT",,,,IC50,12.2 µg/mL
CCCC(CCC)C(=O)[O][Pt]([NH2])([NH2])([Cl])([Cl])[O]C(C)=O,PSN1,"cell growth or viability, MTT",,72 h,,IC50,2.61 µM
CCOc1cncc(-c2ccc(NC(=O)C3(c4ccnc(NS(=O)(=O)C5CC5)n4)CCOCC3)nc2)n1,KCL-22,"cell proliferation, CellTiter-Glo",,72 h,,IC50,0.054 µM
CN(C)c1ccc(CCC(=O)N2C(=O)C3(NC(c4ccc(F)cc4)C4(C(=O)Nc5ccccc54)N3Cc3ccc(F)cc3)c3ccccc32)cc1 (centres unmarked),B16,"cell growth or viability, MTT",,48 h,,IC50,26.1 µM
O=C(NC(c1ccccn1)c1ccccn1)c1cc(-c2ccccc2)n(-c2ccccc2)n1,Genome polyprotein NS2B-NS3 protease,reporter gene,HeLa,,,EC50,11 µM
Cc1nc(Nc2ccc3c(c2)/C(=C/c2c[nH]c4ccccc24)C(=O)N3)c2ccccc2n1,BEAS-2B,"cell growth or viability, MTT",,,,IC50,18.3 µM
CCOC(=O)c1cc(C)[nH]n1,BEAS-2B,"cell growth or viability, MTT",,24 h,,IC50,155 µM
[BH3-][P+]1(C2CCCCC2)CCCCC1,SW-620,"cell growth or viability, MTT",,72 h,,IC50,> 100 µM
CCc1ccc(/N=C2\C(=O)N(Cc3ccc([N+](=O)[O-])cc3)c3ccccc32)cc1,B16,"cell growth or viability, MTT",,48 h,,IC50,3.25 µM
CNS(=O)(=O)Nc1nccc(Cc2c(C)c3ccc(Oc4ncccc4F)cc3oc2=O)c1F,Yamato-SS,"cell viability, CellTiter-Glo",,7 days,,IC50,0.0923 µM
C=CC(=O)N1CCCC(n2c(=O)c3ncccc3n(Cc3ccc(Oc4ccccc4)cc3)c2=O)C1 (centres unmarked),Toledo,"cell growth or viability, MTT",,72 h,,IC50,0.6 µM
CCc1c(-c2ccc3[nH]ncc3c2)cnc(N)c1-c1ccc(O)cc1,CHP-212 parental,"cell viability, SRB",,mean of 3 runs,,IC50,13.8 µM
COc1ccc(OC)c2c1CN(c1cn[nH]c(=O)c1Cl)CC2O (centres unmarked),CHO,"cytotoxicity, MTT",,,,IC50,> 50 µM
COC(=O)N1c2ccc3c(nc(Cc4ccccc4)n3[C@@H]3CCC[C@@H](C(=O)O)C3)c2CC[C@@H]1C,HCC1937,"cell growth or viability, ATP luminescence",,10 days,,IC50,9.41 µM
O=C(CCc1ccccc1)N1C(=O)C2(NC(c3ccc(F)cc3)C3(C(=O)Nc4ccccc43)N2Cc2ccc(F)cc2)c2ccccc21 (centres unmarked),B16,"cell growth or viability, MTT",,48 h,,IC50,27.9 µM
C=CC(=O)N1CC2C(=O)N(CCN(C)C)c3c(c4cc(Cl)c(-c5c(O)cccc5F)nc4n(-c4c(C)ccnc4C(C)C)c3=O)N2CC1C (centres unmarked),NCI-H358,cell growth or viability,,,,IC50,0.0019 µM
NC(=O)c1ccc(-c2ccccc2Cl)c2c3c([nH]c12)CC[C@H](N)C3,SU-DHL-4,cell growth or viability,,,,IC50,0.0232 µM
CC(C)=CCc1c(OCC2OC2(C)C)ccc2ccc(=O)oc12 (centres unmarked),COLO 320 multidrug-resistant,"cytotoxicity, MTT",,"24 h, 10% fetal bovine serum",,IC50,> 100 µM
O=CCNCCOn1c(=O)n(OCCNCCO)c(=O)n(OCCNCCOn2c(=O)n(OCCNCCO)c(=O)n(OCCNCCO)c2=O)c1=O,A549,"cell growth or viability, MTT",,24 h,,IC50,10.5 µg/mL
COc1ccccc1/C=C1\C(=O)N(C)c2ccc(N(C)c3nc(C)nc4ccccc34)cc21,B16,"cell growth or viability, MTT",,,,IC50,1.4 µM
